{"data": "Experimental data collected from several papers", "note": "Protocols differ between the studies behind these lines. ± gives the spread as reported."}
{"SMILES": "Cc1cc2c(cc1C1(c3ncc(C(=O)O)cn3)CC1)C(C)(C)CCC2(C)C", "system": "Sprague-Dawley rat, male", "conditions": "oral, 100 mg/kg, 6 h, sesame oil vehicle", "endpoint": "blood cholesterol", "result": "75 ± 4.7 mg/dL"}
{"SMILES": "CC[C@H](C)[C@H](NC(=O)[C@H](C)NC(=O)[C@@H](NC(=O)[C@H](C)NC(=O)CNC(=O)OCC1c2ccccc2-c2ccccc21)[C@@H](C)O)C(=O)N[C@@H](CCCCN)C(=O)N[C@@H](CCC(N)=O)C(=O)N[C@H](C(=O)N[C@@H](CCCCN)C(=O)N[C@@H](CCCCN)C(=O)N[C@@H](CC(C)C)C(=O)N[C@@H](Cc1ccccc1)C(=O)N[C@@H](CCCCN)C(=O)N[C@@H](CCCCN)C(=O)N[C@@H](CCCCN)C(=O)NCC(=O)NCC(N)=O)C(C)C", "test": "reversed-phase HPLC", "system": "C18 column", "conditions": "hydrophobicity", "endpoint": "acetonitrile at elution", "result": "59%"}
{"SMILES": "COC(=O)c1ccc2c(c1)NC(=O)/C2=C(\\Nc1ccc2c(c1)CCN2C(=O)CN1CCOCC1)c1ccccc1", "system": "Caco-2", "conditions": "2 µM, 2 h", "endpoint": "Papp A→B", "result": "0.43 ×10⁻⁶ cm/s"}
{"SMILES": "O=C(NCCCN(CCCCN(CCCNC(=O)c1cccc(=O)n1[O-])C(=O)c1cccc(=O)n1[O-])C(=O)c1cccc(=O)n1[O-])c1cccc(=O)n1[O-].[89Zr+4]", "system": "mouse, intestine", "conditions": "4 h", "endpoint": "tracer uptake", "result": "7.17 %ID/g"}
{"SMILES": "N=C(N)NCCC[C@@H]1NC(=O)[C@H](Cc2c[nH]c3ccccc23)NC(=O)[C@@H](CC2CCCCC2)NC(=O)[C@@H]2CCCN2C(=O)[C@@H](NC(=O)CCc2ccccc2)CCCNC1=O", "system": "C57BL/6J mice, urine", "conditions": "intravenous, 1 mg/kg, 4 h", "endpoint": "amount excreted unchanged", "result": "20.7 ± 3.8 ng"}
{"SMILES": "CC(=O)N[C@H](CC(=O)O)C(=O)N[C@H](Cc1c[nH]c2ccccc12)C(=O)N[C@H](Cc1ccccc1)C(=O)N[C@H](CCCCN)C(=O)N[C@H](C)C(=O)N[C@H](Cc1ccccc1)C(=O)N[C@H](Cc1ccc(O)cc1)C(=O)N[C@H](CC(=O)O)C(=O)N[C@H](CCCCN)C(=O)N[C@@H](C(=O)N[C@H](C)C(=O)N[C@H](CCC(=O)O)C(=O)N[C@H](CCCCN)C(=O)N[C@H](Cc1ccccc1)C(=O)N[C@H](CCCCN)C(=O)N[C@H](CCC(=O)O)C(=O)N[C@H](C)C(=O)N[C@H](Cc1ccccc1)C(N)=O)C(C)C", "system": "statin-treated high-risk CHD women, plasma", "conditions": "oral, 500 mg daily, day 13, 0 to 8 h, mean, all subjects", "endpoint": "Cmax", "result": "197 ng/mL"}
{"SMILES": "COc1cc(NC(C)=O)c2c(c1O)-c1c(OC)c(OC)cc3c1C(C2)N(C)CC3 (centres unmarked)", "system": "rat, plasma", "conditions": "50 µg/mL, 40 d, -20 °C, long-term storage", "endpoint": "remaining compound", "result": "92.9 ± 9.5%"}
{"SMILES": "C[Si]1(C[C@@H](CN)CC(=O)O)CCCC1", "system": "Sprague-Dawley rat, male, brain", "conditions": "oral, 30 mg/kg, estimated as Cmax x Kp", "endpoint": "brain Cmax", "result": "2800 nM"}
{"SMILES": "OCc1cn(Cc2ccc(-c3noc(-c4ccc(OCC[18F])c(C(F)(F)F)c4)n3)cc2)nn1", "system": "Lewis rats, female, cortex", "conditions": "intravenous, 5 min", "endpoint": "brain uptake", "result": "0.59 %ID/g"}
{"SMILES": "COCCOCCOCCOCCC(=O)NCc1cc(CNC(=O)CCOCCOCCOCCOC)cc(-c2cc3cc4nc(c(-c5ccc(CCC(=O)O)cc5)c5[nH]c(cc6nc(c(OC)c2[nH]3)CC6(C)C)cc5-c2cc(CNC(=O)CCOCCOCCOCCOC)cc(CNC(=O)CCOCCOCCOCCOC)c2)CC4(C)C)c1", "system": "water with 5% DMF", "conditions": "room temperature", "endpoint": "kf^−1", "result": "34 ns"}
{"SMILES": "Cc1ccc(OCC(=O)N(Cc2cccs2)c2ccn[nH]2)cc1", "system": "beagle dog, male, plasma", "conditions": "oral gavage, 100 mg/kg", "endpoint": "dose-normalised AUC(0-last)", "result": "7.04 ng·h/mL/mg/kg"}
{"SMILES": "CCNC(=O)OCc1c(COC(=O)NCC)c(-c2ccc(OC)cc2)n2c1Cc1ccccc1-2", "system": "BALB/c nude mice, blood", "conditions": "dose not given, day 10", "endpoint": "ALT activity", "result": "28.6 ± 1 U/L"}
{"SMILES": "CC(C)(O)c1ncc([S@](N)(=O)=NC(=O)Nc2c3c(cc4c2CCC4)CCC3)s1", "system": "healthy human volunteers, plasma", "conditions": "oral, 10 mg once daily, day 14, capsule formulation", "endpoint": "half-life", "result": "9.58 h"}
{"SMILES": "OC1(C(F)(F)F)CCN(c2nc(Nc3ccnc(C(F)(F)F)c3)nc(-c3cccc(C(F)(F)F)n3)n2)C1 (centres unmarked)", "system": "Sprague-Dawley rat", "conditions": "oral, up to 50 mg/kg, single dose", "endpoint": "respiratory effect", "result": "no effect"}
{"SMILES": "COc1cc2c(cc1OC)CN(CCCCn1ccc3cc(OCC[18F])ccc31)C2", "system": "male CD-1 mouse, kidney", "conditions": "intravenous, 30 min", "endpoint": "tracer uptake", "result": "8.75 %ID/g"}
{"SMILES": "C=CC(=O)Nc1cc(Nc2nccc(-c3cn(C4CC4)c4ccccc34)n2)c(OC)cc1NC", "test": "radio-HPLC, co-eluting peaks pooled", "system": "human male, feces", "conditions": "oral, 110 mg, 0 to 240 h, sample holds 81.99% dose", "scale": "relative to: dose", "endpoint": "excreted amount", "result": "0.94%"}
{"SMILES": "CC1C(c2c(F)ccc(F)c2F)CC(N[14C](=O)c2cnc3c(c2)CC2(C3)C(=O)Nc3ncccc32)C(=O)N1CC(F)(F)F (centres unmarked)", "test": "liquid scintillation counting, item: total radioactivity", "system": "human, plasma", "conditions": "oral, 50 mg, single dose, 14C-labelled", "endpoint": "Tmax, median", "result": "1.5 h"}
{"SMILES": "COc1ccc(C=NCCCN(C)CCN(C)CCCN=Cc2ccc(OC)cc2[O-])c([O-])c1.[67Ga+3]", "system": "rat", "conditions": "intravenous, 2 h", "scale": "relative to: heart over lung", "endpoint": "tissue uptake ratio", "result": "2.6 ± 0.3"}
{"SMILES": "CCCC[C@H](NC(=O)CNC(=O)CNC(=O)CN1CCN(CC(=O)O)CCN(CC(=O)O)CCN(CC(=O)O)CC1)C(=O)N[C@H]1CC(=O)NCCCC[C@@H](C(N)=O)NC(=O)[C@H](Cc2c[nH]c3ccccc23)NC(=O)[C@H](CCCNC(=N)N)NC(=O)[C@@H](Cc2ccccc2)NC(=O)[C@H](Cc2c[nH]cn2)NC1=O [gallium-67 labelled]", "system": "female C57 mice, B16/F1 melanoma, skin", "conditions": "intravenous, 0.037 MBq, 2 h", "endpoint": "tissue uptake", "result": "0.84 ± 0.25 %ID/g"}
{"SMILES": "Oc1ccc2ccccc2c1/N=N/c1ccccc1", "system": "extracted rat blood QC samples", "conditions": "0.5 µg/L, 4 h, room temperature, short-term stability", "endpoint": "measured concentration", "result": "0.482 µg/L"}
{"SMILES": "[2H]C([2H])([2H])Oc1cc2c(cc1OC([2H])([2H])[2H])[C@H]1CC(=O)[C@H](CC(C)C)CN1CC2", "test": "item: nausea", "system": "human", "conditions": "oral, 25 mg", "endpoint": "subjects with adverse event", "result": "9.5%"}
{"SMILES": "NC[C@@H](C(=O)Nc1ccc(-c2cn[nH]c2)cc1)c1ccccc1", "test": "OECD 405 eye irritation", "system": "New Zealand White rabbit, eye", "conditions": "topical, 0.1%, 32 h (day 2), scale 0 to 4", "scale": "direction not given", "endpoint": "chemosis score", "result": 0}
{"SMILES": "NC12CNCCNCC(NCc3ccc(CNC(=O)CCCC(=O)NCc4ccc(-c5nncnn5)cc4)cc3)(CNCCNC1)CNCCNC2.[64Cu+2]", "test": "OLINDA dosimetry", "system": "thyroid", "conditions": "48 h pretargeting interval, together with: huA33-TCO pretargeting", "endpoint": "mean absorbed dose", "result": "0.0328 rad/mCi"}
{"SMILES": "CC[C@@H](C)[C@H]1NC(=O)[C@@H]([C@H](C)O)NC(=O)[C@@H](Cc2c[nH]cn2)NC(=O)CNC(=O)[C@@H](CCCNC(=N)N)NC(=O)CNC(=O)[C@@H](Cc2ccccc2)NC1=O", "system": "New Zealand rabbit", "conditions": "eye drop, single dose", "scale": "relative to: retina over vitreous", "endpoint": "retina to vitreous ratio", "result": "~30 fold"}
{"SMILES": "C#CCN(CCCNC(=O)CCCCC[N+]1=C(/C=C/C2=C(Cl)C(=C/C=C3\\N(CCCCCC(=O)[O-])c4ccccc4C3(C)C)/CCC2)C(C)(C)c2ccccc21)CCCOc1ccc(Cl)cc1Cl", "system": "processed mouse plasma", "conditions": "1 µg/mL nominal, 4 h, in autosampler", "endpoint": "concentration", "result": "1000 ± 90 ng/mL"}
{"SMILES": "CC(C)N(P(c1ccccc1)c1ccccc1)P(c1ccccc1)c1ccccc1.Cc1ccc(C(C)C)cc1.F[B-](F)(F)F.[Cl][Ru+]", "test": "item: ruthenium", "system": "BALB/c nude mice, serum", "conditions": "ip, 5 mg/kg", "endpoint": "absorption half-life", "result": "0.5 h"}
{"SMILES": "Cn1c(=O)oc2ccc(-c3ccc(CC(C#N)NC(=O)C4CNCCCO4)c(F)c3)cc21 (centres unmarked)", "system": "human volunteers, plasma", "conditions": "40 mg single dose, fasted, median", "endpoint": "Tmax", "result": "1 h"}
{"SMILES": "CSCOC1C(=O)C2(C)C(OCSC)CC3OCC3(OC(C)=O)C2C(OC(=O)c2ccccc2)C2(O)CC(OC(=O)C(O)C(C=C(C)C)NC(=O)OC(C)(C)C)C(C)=C1C2(C)C (centres unmarked)", "system": "male Sprague-Dawley rat, plasma", "conditions": "intravenous, 4 mg/kg", "endpoint": "half-life", "result": "7.9 h"}
{"SMILES": "CC(=O)N[C@@H](CCCCN)C(=O)N[C@@H](CCCCN)C(=O)N[C@@H](CCCCN)C(=O)N[C@@H](CCCCN)C(=O)N[C@@H](CCCCN)C(=O)N[C@@H](CCCCN)C(=O)N[C@@H](CCCCN)C(=O)N[C@@H](CCCCN)C(=O)N[C@@H](CCCCN)C(=O)N[C@@H](CCCCN)C(=O)N[C@@H](CCC(N)=O)C(=O)N[C@@H](Cc1c[nH]c2ccccc12)C(=O)N[C@@H](CCC(N)=O)C(=O)N[C@@H](Cc1c[nH]c2ccccc12)C(=O)N[C@@H](CCC(N)=O)C(=O)N[C@@H](Cc1c[nH]c2ccccc12)C(=O)N[C@@H](CCC(N)=O)C(=O)N[C@@H](Cc1c[nH]c2ccccc12)C(=O)N[C@@H](CCC(N)=O)C(=O)N[C@@H](Cc1c[nH]c2ccccc12)C(=O)N[C@@H](CCC(N)=O)C(=O)N[C@@H](Cc1c[nH]c2ccccc12)C(N)=O", "test": "sedimentation velocity AUC", "system": "Tris buffer 20 mM", "conditions": "20 µM, 24 h, pH 7.4, 4 °C", "endpoint": "monomer fraction", "result": "78%"}
{"note": "For quick reference, copied from above:"}
{"SMILES": "O=C(NCCCN(CCCCN(CCCNC(=O)c1cccc(=O)n1[O-])C(=O)c1cccc(=O)n1[O-])C(=O)c1cccc(=O)n1[O-])c1cccc(=O)n1[O-].[89Zr+4]", "system": "mouse, intestine", "conditions": "4 h", "endpoint": "tracer uptake", "result": "7.17 %ID/g"}
{"SMILES": "N=C(N)NCCC[C@@H]1NC(=O)[C@H](Cc2c[nH]c3ccccc23)NC(=O)[C@@H](CC2CCCCC2)NC(=O)[C@@H]2CCCN2C(=O)[C@@H](NC(=O)CCc2ccccc2)CCCNC1=O", "system": "C57BL/6J mice, urine", "conditions": "intravenous, 1 mg/kg, 4 h", "endpoint": "amount excreted unchanged", "result": "20.7 ± 3.8 ng"}
{"SMILES": "CC(=O)N[C@H](CC(=O)O)C(=O)N[C@H](Cc1c[nH]c2ccccc12)C(=O)N[C@H](Cc1ccccc1)C(=O)N[C@H](CCCCN)C(=O)N[C@H](C)C(=O)N[C@H](Cc1ccccc1)C(=O)N[C@H](Cc1ccc(O)cc1)C(=O)N[C@H](CC(=O)O)C(=O)N[C@H](CCCCN)C(=O)N[C@@H](C(=O)N[C@H](C)C(=O)N[C@H](CCC(=O)O)C(=O)N[C@H](CCCCN)C(=O)N[C@H](Cc1ccccc1)C(=O)N[C@H](CCCCN)C(=O)N[C@H](CCC(=O)O)C(=O)N[C@H](C)C(=O)N[C@H](Cc1ccccc1)C(N)=O)C(C)C", "system": "statin-treated high-risk CHD women, plasma", "conditions": "oral, 500 mg daily, day 13, 0 to 8 h, mean, all subjects", "endpoint": "Cmax", "result": "197 ng/mL"}
